Measurements gathered from unrelated publications.
Parts stem from different laboratories: compare values within a part only. Substitutions count along the parent as printed.
Chain of UniProt P08069 (whole entry, looked up): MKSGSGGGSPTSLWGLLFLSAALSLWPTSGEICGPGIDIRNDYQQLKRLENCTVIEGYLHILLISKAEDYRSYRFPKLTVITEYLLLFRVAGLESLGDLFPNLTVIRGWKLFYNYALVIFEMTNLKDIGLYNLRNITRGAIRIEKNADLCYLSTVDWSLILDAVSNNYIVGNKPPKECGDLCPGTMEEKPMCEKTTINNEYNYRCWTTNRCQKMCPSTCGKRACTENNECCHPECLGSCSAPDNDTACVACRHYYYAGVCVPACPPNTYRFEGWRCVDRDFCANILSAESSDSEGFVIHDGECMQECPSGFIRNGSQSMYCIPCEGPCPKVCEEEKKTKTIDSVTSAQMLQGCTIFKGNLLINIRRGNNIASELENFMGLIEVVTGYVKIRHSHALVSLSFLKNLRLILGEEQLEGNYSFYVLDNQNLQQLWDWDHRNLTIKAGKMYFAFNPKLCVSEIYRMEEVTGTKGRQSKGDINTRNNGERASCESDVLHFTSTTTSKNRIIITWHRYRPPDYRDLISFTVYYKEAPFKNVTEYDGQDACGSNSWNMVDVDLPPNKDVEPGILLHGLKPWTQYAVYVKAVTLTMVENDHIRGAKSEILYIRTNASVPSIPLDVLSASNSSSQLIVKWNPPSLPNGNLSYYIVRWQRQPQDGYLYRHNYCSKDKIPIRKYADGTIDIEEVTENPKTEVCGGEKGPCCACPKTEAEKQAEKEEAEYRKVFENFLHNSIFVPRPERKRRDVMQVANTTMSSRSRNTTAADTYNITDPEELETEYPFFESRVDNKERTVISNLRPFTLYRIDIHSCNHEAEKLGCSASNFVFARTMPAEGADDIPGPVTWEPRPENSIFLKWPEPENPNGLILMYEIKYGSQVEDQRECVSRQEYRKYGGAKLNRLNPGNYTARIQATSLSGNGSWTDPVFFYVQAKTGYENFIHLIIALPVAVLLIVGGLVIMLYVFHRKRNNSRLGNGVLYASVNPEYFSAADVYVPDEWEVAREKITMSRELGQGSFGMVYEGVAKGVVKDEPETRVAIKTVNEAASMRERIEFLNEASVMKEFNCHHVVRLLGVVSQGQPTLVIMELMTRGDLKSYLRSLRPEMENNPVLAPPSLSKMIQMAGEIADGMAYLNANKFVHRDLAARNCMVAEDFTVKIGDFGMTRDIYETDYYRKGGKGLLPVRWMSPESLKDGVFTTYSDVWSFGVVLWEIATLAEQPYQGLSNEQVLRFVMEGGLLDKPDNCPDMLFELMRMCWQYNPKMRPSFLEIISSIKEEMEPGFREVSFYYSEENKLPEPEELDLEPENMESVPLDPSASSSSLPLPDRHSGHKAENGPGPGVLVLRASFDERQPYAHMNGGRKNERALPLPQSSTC

Set 1
Target: TAR DNA-binding protein 43, full length, His tag (TARDBP, Homo sapiens, UniProt Q13148, residues 1-414)
Method: RNA Bind-n-Seq
Form: RNA
Sample: in vitro
Concentration: 20 nM
Setting: 6-mer, flanks averaged, single round
With: 150 mM LiCl
Reference: input library
Direction: higher = stronger binding
Under “6-mer enrichment (R)”, `CACAGA` is recorded as 0.821.
Under “6-mer enrichment (R)”, `GGUGGU` is recorded as 1.43.
`AAAAUG` — result for “6-mer enrichment (R)”: 0.937.
`AGCGCC`: “6-mer enrichment (R)” 0.939.
`CCCUUG` — result for “6-mer enrichment (R)”: 1.23.
For `AUGGCA`, “6-mer enrichment (R)” read 0.94.
`UCUUAA`: “6-mer enrichment (R)” 0.898.
Under “6-mer enrichment (R)”, `GUUUCG` is recorded as 1.06.

Set 2
Target: Histone acetyltransferase KAT6A, both winged helices, GST fusion (KAT6A, Homo sapiens, UniProt Q92794, residues 1-181)
Method: protein binding microarray
Form: double-stranded DNA, one strand shown
Sample: in vitro
Concentration: not given
Setting: 8-mer, flanks averaged, mean of 2 arrays, mostly near background
Reference: not given
Direction: higher = stronger binding
Residues (chain): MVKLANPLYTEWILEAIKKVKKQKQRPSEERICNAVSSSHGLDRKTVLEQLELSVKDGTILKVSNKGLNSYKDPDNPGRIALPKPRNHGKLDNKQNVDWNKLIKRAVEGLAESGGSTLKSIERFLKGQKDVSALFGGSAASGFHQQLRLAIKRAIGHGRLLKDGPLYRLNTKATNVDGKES
`CCAGTATC` has an E-score of -0.176.
`ACGTACTC` has an E-score of 0.0279.
`ATGAGCAT` gave an E-score of -0.0388.
With `GATTCCGA` the E-score was 0.176.
With `CCCCGCCC` the E-score was 0.186.
With `ATCCTCAA` the E-score was -0.12.
`ACTGGCAC` has an E-score of -0.13.
With `AGACCGAC` the E-score was 0.145.

Set 3
Target: XBP1, bZIP domain (human)
Method: DHFR protein complementation
Sample: yeast
Setting: single substitutions, most at no-binding floor
Reference: wild-type JUN-FOS pair
Direction: higher = stronger binding
Parent: JUN, bZIP domain (human); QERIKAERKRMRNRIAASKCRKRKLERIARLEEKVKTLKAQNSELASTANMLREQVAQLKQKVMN; partner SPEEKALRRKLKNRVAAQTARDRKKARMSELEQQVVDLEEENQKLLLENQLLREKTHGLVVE
`V56S` gave a binding fitness of -1.18 natural log.
`Q41L` has a binding fitness of -0.776 natural log.
With `K39V` the binding fitness was -1.22 natural log.
`K36D` gave a binding fitness of -1.13 natural log.
`K36V` has a binding fitness of -1.04 natural log.
The binding fitness of `K39N` is reported as -1.25 natural log.
For `N42T`, the binding fitness was -1.49 natural log.
With `E32Y` the binding fitness was -1.16 natural log.

Further values, each from its own experiment
Cc1ccc(S(=O)(=O)/C=C/C#N)cc1 has a remaining activity of 93.5% (Insulin-like growth factor 1 receptor (IGF1R, Homo sapiens, UniProt P08069); enzyme activity, inhibitor; 0.5 µM; reference: control).
